Published values collected from several papers.
Numbered parts are unrelated; each lists some results of a single study. Changes are numbered by the printed parent chain.

Series 1
Target: Interferon regulatory factor 3, full length, phosphomimetic (IRF3, Homo sapiens, UniProt Q14653, residues 1-427, S386D/S396D/S398D/S402D/T404D/S405D)
Method: protein-binding microarray
Molecule type: double-stranded DNA, one strand shown
Medium: in vitro
Tested at: 2540 nM top
Notes: 60-bp whole probe
Added: salmon DNA 0.4 mg/ml
Relative to: random background probes
Direction: higher = stronger binding
Constant ends, left off below: GCCTAGCAC … GTCTTGATTCGCTTGACGCTGCTG
Construct (chain): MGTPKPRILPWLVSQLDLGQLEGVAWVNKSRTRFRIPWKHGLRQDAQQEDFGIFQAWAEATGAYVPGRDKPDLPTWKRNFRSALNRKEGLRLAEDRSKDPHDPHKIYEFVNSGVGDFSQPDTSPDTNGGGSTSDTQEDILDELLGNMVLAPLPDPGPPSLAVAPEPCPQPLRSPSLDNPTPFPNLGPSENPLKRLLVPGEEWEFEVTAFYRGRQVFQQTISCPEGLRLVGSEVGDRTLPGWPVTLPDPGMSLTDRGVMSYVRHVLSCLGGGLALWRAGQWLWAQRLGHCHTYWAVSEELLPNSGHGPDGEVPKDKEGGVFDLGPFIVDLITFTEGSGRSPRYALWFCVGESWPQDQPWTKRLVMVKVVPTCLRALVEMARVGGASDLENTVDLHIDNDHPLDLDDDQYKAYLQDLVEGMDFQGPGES
Strand	fitted relative affinity
GACGGTTTCGCCACTGGGGACGTGCTA	2.86 z-score
TCAATTGTGGTTTTCATACTGTGCTAG	1.99 z-score
TTAGGAATCGGTCTCGGTTAGTGCTAG	1.35 z-score
TTAGGTTTCGGGGTTCGGTTAGTGCTA	3.28 z-score
TTAGGTATCGGGTTTCGCTTAGTGCTA	2.69 z-score
TGAGATTTCAGACTGGATTAGTGCTAG	0.2 z-score
TCAAGTTTTTATTTTCTACTGTGCTAG	1.99 z-score
CCAATTCTTTTTATGCTTTCGTGCTAG	1.85 z-score
TTCGGTATCGACTTTCGGTTAGTGCTA	2.49 z-score
TCACCTTACTTTATGTAACTGTGCTAG	1.33 z-score
TTAGATATCCTTATCCTTTAGTGCTAG	3.12 z-score

Series 2
Target: CCNA2, cyclin fold, Cln2 fusion (human)
Method: yeast growth competition, sequencing
Medium: yeast
Notes: strong parent motif
Relative to: not given
Direction: higher = stronger binding
Parent: MICAL3 docking peptide (human); LQLRRQLSFSEDS
Variant	normalised enrichment score
LQLRRQLSFSTDS [E11T]	3.22
LQLRRDLSFSEDS [Q6D]	0.119
LQLRRQKSFSEDS [L7K]	-0.00816
LQLRRQLSISEDS [F9I]	0.226
LQLRVQLSFSEDS [R5V]	0.349
LNLRRQLSFSEDS [Q2N]	3.68
LELRRQLSFSEDS [Q2E]	2.44
LQLRRQLSFFEDS [S10F]	2.14
LQLRRQLSTSEDS [F9T]	0.0655
LQLRRELSFSEDS [Q6E]	1.72

Series 3
Target: Phosphate system positive regulatory protein PHO4, full length, GST-tagged (PHO4, Saccharomyces cerevisiae, UniProt P07270, residues 1-312)
Method: competition protein-binding microarray
Molecule type: double-stranded DNA, one strand shown
Medium: in vitro
Tested at: 2 µM
Notes: whole 60-bp probe, lowest competitor level
Added: Cbf1 competitor, 0.05 µM
Direction: higher = stronger binding
Construct (chain): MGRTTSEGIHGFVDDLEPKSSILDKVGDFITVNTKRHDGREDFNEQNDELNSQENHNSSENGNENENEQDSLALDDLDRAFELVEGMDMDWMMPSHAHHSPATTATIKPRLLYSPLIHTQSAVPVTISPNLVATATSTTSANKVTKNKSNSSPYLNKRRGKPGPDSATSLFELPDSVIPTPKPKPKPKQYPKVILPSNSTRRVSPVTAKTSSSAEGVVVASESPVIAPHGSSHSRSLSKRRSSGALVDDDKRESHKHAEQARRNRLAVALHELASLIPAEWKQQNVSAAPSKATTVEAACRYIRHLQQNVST
Strand	fluorescence intensity [a.u.]
CCATTCATGTCGAGTCACGTGGTGAATACAGATAATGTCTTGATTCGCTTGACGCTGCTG	19300
CTTTTCAAGAATGCAAACGTGAGGTTGGCGCGCCCTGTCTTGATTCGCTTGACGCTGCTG	8650
TTCTCGGACTTAAAGCATGTGCTCACCATACTACCAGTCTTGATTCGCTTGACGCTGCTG	12600
CGGGGTTAAGTTTGTCATGTGGGTGGCTTGCAGCAGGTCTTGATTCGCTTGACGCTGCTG	9360
AATGGAGATATATACTTGATAGCTTTGGATGAATCTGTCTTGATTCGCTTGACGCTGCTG	2490
CTCTACTATGGCATCCACATGAAAACCAGTCTCAGAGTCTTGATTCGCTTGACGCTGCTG	5080
AAAGCGGTAATTTGGTAAGTGGGTGCAGATATCTATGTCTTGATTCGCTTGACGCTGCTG	4070
GCGAATAATATGTTTTGCGTGGGTATCCCAGGAGCGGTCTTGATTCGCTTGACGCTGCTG	5070
CTAACGAAGGTTTGTCAGGTGGGTGACAAGCCAAGTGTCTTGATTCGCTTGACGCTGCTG	5120
GTCTTGTCTCATTGGCATGTGGGTGTCCCCACTTCAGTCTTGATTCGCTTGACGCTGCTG	9860

Series 4
Target: Ras GTPase-activating protein-binding protein 1, full length (G3BP1, Homo sapiens, UniProt Q13283)
Chain of UniProt Q13283 (whole entry, looked up): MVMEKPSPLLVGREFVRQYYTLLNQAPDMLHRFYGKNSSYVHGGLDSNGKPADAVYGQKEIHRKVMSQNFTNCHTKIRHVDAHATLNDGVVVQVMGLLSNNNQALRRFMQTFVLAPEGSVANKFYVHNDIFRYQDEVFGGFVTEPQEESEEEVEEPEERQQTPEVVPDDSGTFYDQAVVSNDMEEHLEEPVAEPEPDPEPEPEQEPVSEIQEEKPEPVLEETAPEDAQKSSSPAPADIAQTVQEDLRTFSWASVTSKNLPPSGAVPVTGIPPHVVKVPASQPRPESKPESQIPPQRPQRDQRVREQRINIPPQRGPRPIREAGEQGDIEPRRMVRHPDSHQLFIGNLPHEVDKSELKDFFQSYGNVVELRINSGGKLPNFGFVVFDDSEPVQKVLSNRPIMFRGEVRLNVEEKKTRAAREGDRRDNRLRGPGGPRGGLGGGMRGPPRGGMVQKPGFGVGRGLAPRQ
Method: RNA Bind-n-Seq
Molecule type: RNA
Medium: in vitro
Tested at: 200 nM
Notes: whole 134-nt RNA, ends assumed
Added: 150 mM KCl
Relative to: input library
Direction: higher = stronger binding
Strand	log2 enrichment
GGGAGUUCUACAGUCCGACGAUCUAGCAAGCCAAAUUACAGCAGCAGAUGGACCUGCAGAAAAAUCACAUUUUCCGUCUGACUCAAGGACUGCAAGAAGCUCUAGAUCGGGCUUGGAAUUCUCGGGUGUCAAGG	-1.84
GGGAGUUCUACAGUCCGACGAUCCAAGUCCUGUGCUACACAUCGUAUGUACCGAAUCGGUUUUGGGUUUUGGGUUUUGGAAAGUAUUAUGUUACGCCGUUCGGAUCUGCACUUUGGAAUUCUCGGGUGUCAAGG	-1.22
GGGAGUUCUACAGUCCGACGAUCUGGCCCUGGUGGCAUGCGGGGAGGAAGAGGUGGCCUCAUGGAUCGUGGUGGGCCCGGUGGAAUGUUCAGAGGUGGCCGUGGUGGAGACAGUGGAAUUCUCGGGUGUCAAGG	0.52
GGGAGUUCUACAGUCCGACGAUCGUCCUGUGCUACACAUCGUAUGUACCGAAUCGGGGUUUGGGGUGGGGUUUUUUUGGGGAAAGUAUUAUGUUACGCCGUUCGGAUCUGCACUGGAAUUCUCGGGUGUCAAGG	0.443
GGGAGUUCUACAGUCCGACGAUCGUCCUGUGCUACACAUCGUAUGUACCGAAUCGGGGAAAAAAGGAAAAAAGGAAAAAAGGAAAGUAUUAUGUUACGCCGUUCGGAUCUGCAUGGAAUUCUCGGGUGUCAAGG	-0.855
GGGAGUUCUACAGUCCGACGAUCUCUCUUGCUCAAGUUUUCUCUCACAGAUGACAGCCACCUACCACAUAACAUGACCAGCAAACGGACUGUUCCUAGUCCAGAGGGCCUUGCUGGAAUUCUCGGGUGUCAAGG	0.99
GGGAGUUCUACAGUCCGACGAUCUGGCCCUGGUGGCAUGCGGGGAGGAAGAGGUGGCCUCGUGGAUCGUGGUGGUCCCGGUGGAAUGUUCAGAGGUGGCCGUGGUGGAGACAGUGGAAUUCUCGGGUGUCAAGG	0.308
